Published values pooled from the literature.
Numbered parts are unrelated; each lists some results of a single study.

Study 1
Target: human cyclin A2
Observed: peptide binding
Method: competitive growth sequencing
Form: peptide
Organism: Saccharomyces cerevisiae
Strain: cyclin A2-Cln2 fusion strain
Concentration: concentration not given
Setting: peptide tiling library
Baseline: unfused Cln2 strain
Reading: direction not given
| Sequence | binding score |
| --- | --- |
| ASTTRARAFVENDSPS | 0.25 |
| TTTTSPRTPPPLTVQD | -0.672 |
| PQWPCGKHKRVLIFAS | 0.55 |
| NNIRKALSFDNRGEEH | 1.19 |
| VLPGGVPSPGASLTSM | 0.366 |
| SGYLTDENEVGFRG | 0.366 |
| TRRRLFVENDSP | 2.69 |

Study 2
Target: Ras GTPase-activating protein-binding protein 1, full length (G3BP1, Homo sapiens, UniProt Q13283)
UniProt Q13283, sequence (whole entry, looked up): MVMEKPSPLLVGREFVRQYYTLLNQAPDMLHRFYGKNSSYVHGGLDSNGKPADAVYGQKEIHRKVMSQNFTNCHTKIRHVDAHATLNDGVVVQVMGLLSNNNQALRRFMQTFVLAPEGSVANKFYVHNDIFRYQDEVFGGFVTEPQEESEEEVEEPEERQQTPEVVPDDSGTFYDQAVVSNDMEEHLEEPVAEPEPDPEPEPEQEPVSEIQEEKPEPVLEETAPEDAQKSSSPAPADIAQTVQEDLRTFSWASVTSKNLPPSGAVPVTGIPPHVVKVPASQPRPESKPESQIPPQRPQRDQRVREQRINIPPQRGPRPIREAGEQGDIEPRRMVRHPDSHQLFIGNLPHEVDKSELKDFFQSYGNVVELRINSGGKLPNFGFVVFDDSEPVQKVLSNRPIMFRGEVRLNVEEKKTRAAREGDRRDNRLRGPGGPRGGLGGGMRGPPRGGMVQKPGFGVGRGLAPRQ
Method: RNA Bind-n-Seq
Form: RNA
Matrix: in vitro
Concentration: 200 nM
Setting: whole 134-nt RNA, ends assumed
Added: 150 mM LiCl
Baseline: input library
Reading: higher = stronger binding
Library: 7-deaza-guanosine replaces G
| Oligonucleotide | log2 enrichment |
| --- | --- |
| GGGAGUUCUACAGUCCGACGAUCCCUCAAGUCCUGUGCUACACAUCGUAUGUACCGAAUCGGGUGGGAGGGAGGGAAAGUAUUAUGUUACGCCGUUCGGAUCUGCACUUCCAGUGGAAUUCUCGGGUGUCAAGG | 0.021 |
| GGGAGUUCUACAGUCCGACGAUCGAAAUUGAACCAGCAGCGAUGAAAGCAGCAGCUGCUGCCCCUGCCUCAGAGGAUGAGGACGAUGAGGAUGACGAAGAUGAUGAGGAUGACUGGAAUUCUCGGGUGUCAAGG | -1.29 |
| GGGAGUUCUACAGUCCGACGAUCUUGUGGCUGAGAGACAGUUUGCAAAGGAACAACAUACAGAUGGGACACUAAAGGAAGUUGGAGAAGAUUAUCAAAUCGCAAUCCCAGAUUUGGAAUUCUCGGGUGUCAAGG | 0.642 |
| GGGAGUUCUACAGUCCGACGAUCUGGGAGGUGGAUUUUGUUUAUUUUUUUAGCUCAUUUCCAGGGGUGUGAAUUUUUUUUUAAUAUGUGUCAUGAAUAAAGUUGUUUUUGAAAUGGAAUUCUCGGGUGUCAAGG | -0.599 |
| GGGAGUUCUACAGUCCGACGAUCAGUCCUGUGCUACACAUCGUAUGUACCGAAUCGGGUUUUUUUGGGAGGGAAAAAGGGAAAGUAUUAUGUUACGCCGUUCGGAUCUGCACUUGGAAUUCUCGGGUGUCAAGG | -0.498 |
| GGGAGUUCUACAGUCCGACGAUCCAAGUCCUGUGCUACACAUCGUAUGUACCGAAUCGGAGGAAAAAAAGGAAAAAGGAAAGUAUUAUGUUACGCCGUUCGGAUCUGCACUUCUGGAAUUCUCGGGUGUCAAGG | -0.289 |

Study 3
Target: Interferon regulatory factor 5, full length, phosphomimetic (IRF5, Homo sapiens, UniProt Q13568-2, residues 1-514, S451D/S453D/S456D/S462D)
Method: protein-binding microarray
Form: double-stranded DNA, one strand shown
Matrix: in vitro
Concentration: 940 nM top
Setting: 60-bp whole probe
Added: salmon DNA 0.4 mg/ml
Baseline: random background probes
Reading: higher = stronger binding
All sequences stand within: GCCTAGCAC … GTCTTGATTCGCTTGACGCTGCTG
| Oligonucleotide | fitted relative affinity [z-score] |
| --- | --- |
| TCATTACTAAAATTTCATACTGTGCTA | 0.73 |
| GACGGACTGGGTTTCAGGACGTGCTAG | 0.394 |
| GACGGACGGGGTTTCGGGACGTGCTAG | 2.77 |
| TTAGGAATCGACTATCGGTTAGTGCTA | 0.509 |
| GACGAACTGAGTCTCGGGACGTGCTAG | 0.426 |
| GACGCTATCAGACTGGAGACGTGCTAG | -0.109 |
| GACGAGTTCAGACTGGAGACGTGCTAG | -0.307 |
| GACGGTATCCTACAGCTGACGTGCTAG | -0.154 |

Single results of other studies
| Molecule | target | assay | test system | conditions | scale | measurement | value |
| --- | --- | --- | --- | --- | --- | --- | --- |
| PhoQ, residues 284 288 289 292 302 303 SSCLAV | PhoP, residues 12 14 15 18 19 AGCRL (Escherichia coli, UniProt P23836) | Sort-seq, measured: YFP reporter | E. coli | PhoQ-PhoP variant library, added: 10 µM Mg2+ | baseline: high Mg2+ state, higher = stronger signaling | fold induction | 8.63 |
